Experimental data gathered from unrelated publications.
Lines come from different studies, so protocols differ.
Target: MAP kinase-activated protein kinase 5 (MAPKAPK5, Homo sapiens, UniProt Q8IW41)

C=CC(=O)Nc1cccc(-c2cnc3[nH]cc(C(=O)NC(C)(C)C)c3n2)c1
inhibition (enzyme activity, inhibitor; 0.1 µM): 5%

CNC(=O)C1CCN(c2cc(C)c(F)cc2NC(=O)c2ccc(-c3cc(O)ccc3C)c(C)c2)CC1
remaining binding (binding, competition with immobilised ligand; 1 µM): 60%

C=CC(=O)N1CCCC(n2c(=O)c3ncccc3n(Cc3ccc(Oc4ccccc4)cc3)c2=O)C1 (stereo not drawn)
remaining binding (cell-free assay, competition with immobilised ligand; 1 µM): 78%

COc1cc(Nc2nc(C)cc(-c3cnn4nc(OC)ccc34)n2)cc(C(F)(F)F)c1
remaining activity (inhibitor; 1 µM; baseline: control): 82%

NC(=O)C[C@H]1CCc2sc3ncnc(O[C@H]4CC[C@H](N5CCOCC5)CC4)c3c21
inhibition (enzyme activity, inhibitor; 10 µM): 1%

C=CC(=O)N1CCc2ccc(-n3c(=O)ccc4cnc5ccc(-c6cnn(C)c6)cc5c43)cc21
remaining binding (KINOMEscan; 1 µM; baseline: DMSO control): 98%

Cc1cccc(-c2ccc3nc(NC(=O)C4CCCCC4)nn3c2)c1
remaining activity (enzyme activity, Dundee kinase panel; 10 µM): 75%

Cc1nc2c(F)cc(-c3nc(Nc4ccc(CNC(=O)CCCCCCC(=O)NO)cc4)ncc3F)cc2n1C(C)C
inhibition (enzyme activity, inhibitor; 1 µM): 17%

CCn1cc(C(=O)O)c(=O)c2c(N)c(F)c(NC3CCCCC3)cc21
inhibition (kinase activity; 0.1 µM, together with: ATP at Km): -15.8%

O=C(Nc1ccc(Oc2ncnc3[nH]cc(-c4ccccc4)c23)c(F)c1)c1c2n(n(-c3cc(F)ccc3F)c1=O)CCCC2
inhibition (enzyme activity, inhibitor; 0.5 µM): 26%

COc1c(Cl)cccc1Nc1c(-c2ccncc2C#C[C@@]2(C)CCCN2C(=O)/C=C/CN(C)C)[nH]c2c1C(=O)NCC2
remaining binding (binding, competition with immobilised ligand; 3 µM): 77%

O=c1c(-c2ccc(Cl)c(CN3CCOCC3)c2)coc2cc(O)ccc12
remaining activity (enzyme activity, inhibitor; 1 µM): 106%

Nc1ncc2c(n1)-c1c([nH]c3ccc(C4=CCOCC4)cc13)CCC2
remaining binding (binding, competition with immobilised ligand; 1 µM): 98%

Cc1cccc(-c2ccc3nc(NC(=O)C4CCCO4)nn3c2)c1 (stereo not drawn)
remaining activity (enzyme activity, Dundee kinase panel; 10 µM): 65%

O=C(Cc1ccc(OCc2ccccc2)cc1)NC1(C(=O)O)CCN(C(=O)c2ccc(-c3cccc(Cl)c3)cc2)CC1
activity vs control (enzyme activity, inhibitor; 10 µM): 134%

CNC1C[S+]2CC[S+]3CC[S+](C1)[Ru-4]321([N]=C=S)[n]2c3ccc(OC)cc3c3c4c(c5cc(F)c[n+]1c5c32)C(=O)NC4=O (stereo not drawn)
remaining binding (KinomeScan; 0.1 µM; baseline: untreated): 100%

CN1CCN(Cc2ccc(-c3ccc(CO[C@H]4CCC[C@@H]4NC(=O)c4cc(-c5cnn(C)c5)cnc4N)cc3)cc2)CC1
inhibition (enzyme activity, inhibitor; 0.1 µM): 1%

Cc1cccc(O[C@H]2CCC[C@@H](C(C)CNCc3ccncc3)C2)c1 (relative stereo)
inhibition (enzyme activity, inhibitor; 1 µM): 6%

For quick reference, copied from above:
C=CC(=O)Nc1cccc(-c2cnc3[nH]cc(C(=O)NC(C)(C)C)c3n2)c1
inhibition (enzyme activity, inhibitor; 0.1 µM): 5%
